Results of several laboratories.
Lines come from different studies, so protocols differ. “And” joins repeats or separate records; there may be more than shown. ± gives the spread as reported.

COc1cc(Nc2c(C#N)cnc3cc(OCCCN4CCN(C)CC4)c(OC)cc23)c(Cl)cc1Cl
Cmax geometric mean ratio (human, severe hepatic impairment, plasma; relative to: normal hepatic function): 152%

CC(C)c1nc(N(C)S(C)(=O)=O)nc(-c2ccc(F)cc2)c1/C=C/[C@@H](O)C[C@@H](O)CC(=O)O
Cmax decrease (human; oral, dose not given, together with: omaveloxolone; relative to: substrate alone): 39%

OC[C@H]1O[C@@H](c2ccc(Cl)c(Cc3ccc(O[C@H]4CCOC4)cc3)c2)[C@H](O)[C@@H](O)[C@@H]1O
Cmax at steady state (healthy humans, plasma; oral, 25 mg once daily, 5 days, alone): 475 ± 116 ng/mL

Cc1cc(C)c(CNC(=O)c2cc(Cl)c3c(c2C)O[C@@](C)([C@H]2CC[C@H](N(C)C)CC2)O3)c(=O)[nH]1
Cmax fold increase (human, male; oral, dose not given, together with: fluconazole; relative to: compound alone): ~1.6 fold and 1.6 fold

CC(C)=CCC/C(C)=C/CC/C(C)=C/CC[C@@](C)(O)CCC1=C(C)C(=O)C(C)=C(C)C1=O
Cmax geometric mean (healthy human, plasma; oral, 400 mg, together with: itraconazole 200 mg): 3430 ng/mL

COC(=O)N[C@@H](C)CNc1nccc(-c2cn(C(C)C)nc2-c2cc(Cl)cc(NS(C)(=O)=O)c2F)n1
Cmax geometric mean ratio (human, plasma; oral, single dose, together with: posaconazole; relative to: compound alone): 168%

N#Cc1ccc2c(c1)[C@H]1CCCN(C(=O)c3ccc4[nH]cnc4c3)[C@H]1C2
Cmax steady state (human, plasma; oral, 20 mg once daily, steady state): 2180 nM

CC(C)(C(=O)N1CCOc2c(C#N)cncc2C1)C(F)F
Cmax dose proportionality ratio (healthy humans, both sexes, plasma; oral, 20 mg single dose, 2-fold dose increase; relative to: 20 mg over 10 mg): 2.08

Cc1cc(Nc2ncnc3ccc(NC4=NC(C)(CO)CO4)cc23)ccc1Oc1ccn2ncnc2c1 (stereo not shown)
Cmax (geometric mean) (human, plasma; tucatinib, day 10, together with: rifampin once daily): 88.5 ng/mL

COC(=O)N[C@H](C(=O)N1CCC[C@H]1c1ncc(-c2cc(F)c3c(c2)O[C@@H](c2cnc(C4CC4)s2)n2c-3cc3cc(-c4cnc([C@@H]5CCCN5C(=O)[C@@H](NC(=O)OC)C(C)C)[nH]4)ccc32)[nH]1)C(C)C
Cmax increase (healthy adult humans; oral, dose not given; relative to: low-fat meal over fasted): ~20%

CCCn1cc(C)c2c(=O)[nH]c(-c3cc(S(=O)(=O)N4CCN(CC)CC4)ccc3OCC)nc21
Cmax increase (human, plasma; dose not given, together with: alcohol; relative to: drug alone): 74.5%

Cc1cc(Nc2ncc(Cl)c(Nc3ccccc3S(=O)(=O)C(C)C)n2)c(OC(C)C)cc1C1CCNCC1
Cmax increase (human, plasma; oral, 450 to 600 mg, cycle 1 day 1): 45%

CO[C@]1(C(=O)N[C@@H](C)c2ccc(-n3cc(F)cn3)nc2)CC[C@H](c2nc(C)cc(Nc3cc(C)[nH]n3)n2)CC1
Cmax increase (healthy human volunteers, plasma; oral, dose not given, together with: itraconazole; relative to: compound alone): ~84%

O=C(c1cccnc1-c1ccncc1)N1CCC(O)(Cc2ccccc2)CC1
Cmax at steady state (human, moderate hepatic impairment, plasma; oral, 300 mg): 5170 ng/mL

O=C(O)C[C@H](O)C[C@H](O)/C=C/c1c(C2CC2)nc2ccccc2c1-c1ccc(F)cc1
Cmax increase (OATP1B1/1B3 humanised mice, plasma; oral, dose not given, together with: rifampicin 20 mg/kg; relative to: vehicle): 3.45 fold

C=CC(=O)NC1CCN(c2ncc3ncnc(Nc4ccc(Oc5ccc6c(c5)ncn6C)c(C)c4)c3n2)CC1
Cmax increase (human, male, plasma; oral, 240 mg, fed; relative to: fasted): ~26%

C=CC(=O)N1CCC[C@@H](n2c(=O)n(-c3ccc(Oc4ccccc4)cc3)c3c(N)nccc32)C1
Cmax fed/fasted ratio (human; oral, 120 mg; relative to: fed over fasted): 0.71

COc1ccc2nc([S@@+]([O-])Cc3ncc(CO)c(OC)c3C)[nH]c2c1
Cmax ratio (human; fluvoxamine plus voriconazole inhibition session; relative to: (R)-OH-omeprazole over compound): 3.4 fold

NC[C@@]1(CC(=O)O)[C@@H]2CC[C@H]3C[C@@H]2[C@@H]1C3
Cmax increase (human, severe renal impairment, plasma; dose not given; relative to: normal renal function): 21.6%

N[C@@H](CC(=O)N1CCn2c(nnc2C(F)(F)F)C1)Cc1cc(F)c(F)cc1F
Cmax divided by body mass index (human, male, plasma; oral, 100 mg single dose): 19.6 ± 6.28 ng/mL

CC1(C)CC[C@]2(NC(=O)C(C)(F)F)CC[C@]3(C)[C@H](C(=O)C=C4[C@@]5(C)C=C(C#N)C(=O)C(C)(C)[C@@H]5CC[C@]43C)[C@@H]2C1
Cmax decrease (human; oral, dose not given, together with: efavirenz; relative to: compound alone): 38%

Cc1nc(-c2ccc(OCC(C)C)c(C#N)c2)sc1C(=O)O
Cmax reduction (human, plasma; oral, 40 mg, together with: high-fat meal; relative to: fasting): ~35% and 35%

CN1CCC(COc2cnc(-c3cccc(Cn4nc(-c5cccc(C#N)c5)ccc4=O)c3)nc2)CC1
Cmax geometric mean ratio (human; together with: itraconazole; relative to: compound alone): 102%

CC(C)(C#N)c1cc(Cn2cncn2)cc(C(C)(C)C#N)c1
Cmax at steady state (human; 125 mg): 53.7 ng/mL

C#C[C@]1(CO)O[C@@H](n2cnc3c(N)nc(F)nc32)C[C@@H]1O
Cmax decrease (human, plasma; oral, 30 mg, together with: high-fat meal; relative to: fasted): ~50%

N[C@@H]1c2cccnc2[C@H](OC(=O)N2CCC(n3c(=O)[nH]c4ncccc43)CC2)CC[C@H]1c1cccc(F)c1F
Cmax change (human, plasma; oral, 75 mg, together with: fluconazole; relative to: compound alone): 1.04 fold

N#Cc1ccc(C(c2ccc(C#N)cc2)n2cncn2)cc1
Cmax at steady state (human; 125 mg): 150 ng/mL

[H]/N=C(/N)c1ccc(NCc2nc3cc(C(=O)N(CCC(=O)O)c4ccccn4)ccc3n2C)cc1
Cmax increase (healthy human, plasma; oral, dose not given, dabigatran etexilate dosed, together with: vepdegestrant; relative to: alone): 92%

COc1cc(C(=O)NC2CCN(C)CC2)c(F)cc1Nc1ncc(C(F)(F)F)c(Oc2cccc3c2C(=O)N(C)C3)n1
Cmax steady state (human, Taiwanese, plasma; oral, 200 mg once daily multiple dose, geometric mean): 2560 nM

CCCS(=O)(=O)N[C@H]1C[C@@H](N(C)c2ncnc3[nH]ccc23)C1
Cmax geometric mean (healthy human, plasma; oral, 100 mg): 520 ng/mL

COC(=O)N[C@@H](C)CNc1nccc(-c2cn(C(C)C)nc2-c2cc(Cl)cc(NS(C)(=O)=O)c2F)n1
Cmax median (humans, plasma; oral, dose not given, day 1, single dose, together with: binimetinib): 5950 ng/mL

Some of these lines once more:
COC(=O)N[C@@H](C)CNc1nccc(-c2cn(C(C)C)nc2-c2cc(Cl)cc(NS(C)(=O)=O)c2F)n1
Cmax geometric mean ratio (human, plasma; oral, single dose, together with: posaconazole; relative to: compound alone): 168%

Cc1cc(Nc2ncnc3ccc(NC4=NC(C)(CO)CO4)cc23)ccc1Oc1ccn2ncnc2c1 (stereo not shown)
Cmax (geometric mean) (human, plasma; tucatinib, day 10, together with: rifampin once daily): 88.5 ng/mL

Cc1nc(-c2ccc(OCC(C)C)c(C#N)c2)sc1C(=O)O
Cmax reduction (human, plasma; oral, 40 mg, together with: high-fat meal; relative to: fasting): ~35% and 35%

COc1cc(C(=O)NC2CCN(C)CC2)c(F)cc1Nc1ncc(C(F)(F)F)c(Oc2cccc3c2C(=O)N(C)C3)n1
Cmax steady state (human, Taiwanese, plasma; oral, 200 mg once daily multiple dose, geometric mean): 2560 nM
